Results gathered from unrelated publications.
Each numbered part is a random draw from the data of one study; scales do not carry over between parts.

Set 1
Target: Centromere-binding protein 1, full length, N-terminal tag (CBF1, Saccharomyces cerevisiae, UniProt P17106, residues 1-351)
Sequence of UniProt P17106 (whole entry, looked up): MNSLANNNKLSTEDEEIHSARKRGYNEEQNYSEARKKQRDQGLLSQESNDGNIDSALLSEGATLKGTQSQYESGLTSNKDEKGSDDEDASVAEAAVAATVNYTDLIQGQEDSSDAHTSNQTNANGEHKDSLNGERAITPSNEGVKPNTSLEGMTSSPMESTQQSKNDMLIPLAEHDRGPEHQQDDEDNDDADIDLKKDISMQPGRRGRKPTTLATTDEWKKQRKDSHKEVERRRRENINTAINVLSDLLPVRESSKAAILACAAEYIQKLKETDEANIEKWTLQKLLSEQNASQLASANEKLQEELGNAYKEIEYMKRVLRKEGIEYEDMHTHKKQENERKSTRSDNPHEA
Method: protein-binding microarray
Form: double-stranded DNA, one strand shown
Matrix: in vitro
Concentration: 0.8 µM
Setting: whole 60-bp probe, no competitor
Reading: higher = stronger binding
| Strand | fluorescence intensity [a.u.] |
| --- | --- |
| TGTACGAAGCTATCGGTGGTGGTTATAGTAGTTAGGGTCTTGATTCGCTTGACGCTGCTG | 510 |
| GAATGTATCTGTGCCCATGTGATCTGTACCTTTTAGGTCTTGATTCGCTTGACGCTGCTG | 3100 |
| CCTAACTACTATAGTCATCTGACATAGCTTCGTACAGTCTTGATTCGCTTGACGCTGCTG | 1430 |
| CTAAAGGATTAATGAGAGGTGACGTATAAAATCTTCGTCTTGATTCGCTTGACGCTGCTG | 501 |
| CTAATTGTTACAGCACAAATCACGCGTATTTTCTTCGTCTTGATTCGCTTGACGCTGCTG | 1120 |
| CTAACTCTCACAGCTGATGTGATCCGAAGAAAATTCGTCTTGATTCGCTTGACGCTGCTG | 635 |
| TGTACGAAGCTATATCAGGTGGCTATAGTAGTTAGGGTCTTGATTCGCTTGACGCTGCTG | 737 |
| GAAAATCCAGCCCATCACCCGGATATTCTGGAATAGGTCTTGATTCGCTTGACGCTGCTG | 478 |

Set 2
Target: Sal-like protein 4, full length isoform A (SALL4, Homo sapiens, UniProt Q9UJQ4, residues 1-1053)
Sequence of UniProt Q9UJQ4 (whole entry, looked up): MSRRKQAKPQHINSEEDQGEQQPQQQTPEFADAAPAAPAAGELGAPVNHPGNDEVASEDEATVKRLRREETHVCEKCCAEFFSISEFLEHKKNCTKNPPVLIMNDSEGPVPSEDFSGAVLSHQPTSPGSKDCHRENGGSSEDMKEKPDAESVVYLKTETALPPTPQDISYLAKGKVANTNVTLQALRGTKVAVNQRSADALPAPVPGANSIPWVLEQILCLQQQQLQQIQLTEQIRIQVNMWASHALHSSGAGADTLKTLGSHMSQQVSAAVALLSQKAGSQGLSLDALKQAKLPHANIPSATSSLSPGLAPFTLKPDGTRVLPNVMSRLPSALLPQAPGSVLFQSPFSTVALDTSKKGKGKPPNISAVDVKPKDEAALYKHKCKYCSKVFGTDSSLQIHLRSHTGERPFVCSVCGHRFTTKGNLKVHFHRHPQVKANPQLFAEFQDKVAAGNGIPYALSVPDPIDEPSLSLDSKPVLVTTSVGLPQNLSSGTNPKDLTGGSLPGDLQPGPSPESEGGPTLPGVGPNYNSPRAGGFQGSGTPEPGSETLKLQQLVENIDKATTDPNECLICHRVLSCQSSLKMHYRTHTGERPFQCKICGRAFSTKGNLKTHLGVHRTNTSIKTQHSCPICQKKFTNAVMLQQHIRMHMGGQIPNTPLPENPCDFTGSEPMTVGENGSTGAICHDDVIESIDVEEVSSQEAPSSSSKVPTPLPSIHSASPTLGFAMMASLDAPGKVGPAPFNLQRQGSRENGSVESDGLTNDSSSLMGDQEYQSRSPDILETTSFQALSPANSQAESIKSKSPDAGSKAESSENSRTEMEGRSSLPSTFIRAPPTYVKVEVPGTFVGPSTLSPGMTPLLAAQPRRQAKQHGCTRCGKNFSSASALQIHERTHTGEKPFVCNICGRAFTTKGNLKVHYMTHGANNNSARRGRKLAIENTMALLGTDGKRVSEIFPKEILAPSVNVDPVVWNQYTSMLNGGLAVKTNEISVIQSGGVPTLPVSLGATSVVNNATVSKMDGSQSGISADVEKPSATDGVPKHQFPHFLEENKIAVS
Method: universal PBM
Form: double-stranded DNA, one strand shown
Matrix: in vitro
Concentration: 600 nM
Setting: 8-mer, flanks averaged, mean of replicates
Reading: higher = stronger binding
| Strand | E-score |
| --- | --- |
| ATACCAGA | 0.0873 |
| AACGATAG | 0.208 |
| TAATGGCA | 0.11 |
| CACACAGC | -0.0749 |
| GAGATTTA | 0.188 |
| AAACACAG | 0.188 |
| AGAACTAT | 0.262 |

Set 3
Target: Histone acetyltransferase KAT6A, winged helix 2, GST fusion (KAT6A, Homo sapiens, UniProt Q92794, residues 85-181)
Method: protein binding microarray
Form: double-stranded DNA, one strand shown
Matrix: in vitro
Concentration: not given
Setting: 8-mer, flanks averaged, mean of 2 arrays, mostly near background
Baseline: not given
Reading: higher = stronger binding
Construct (chain): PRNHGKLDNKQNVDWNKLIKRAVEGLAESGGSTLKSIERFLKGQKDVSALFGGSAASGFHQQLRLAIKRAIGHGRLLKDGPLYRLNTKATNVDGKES
| Strand | E-score |
| --- | --- |
| ACCTCCGT | 0.126 |
| GTAGGACA | 0.21 |
| AATAAATC | -0.0183 |
| GCGCATTA | 0.141 |
| CGGAAAAA | 0.064 |
| CTTGGGGA | 0.0221 |
| GCAGCGTA | -0.0855 |
| GAGGACCA | -0.048 |
| CCCTCCAC | 0.137 |
| ATGTGCTA | -0.162 |

Mixed results
| Molecule | target | assay | system | conditions | how to read | quantity | result |
| --- | --- | --- | --- | --- | --- | --- | --- |
| PhoQ, residues 284 288 289 292 302 303 TLMATV | PhoP, residues 12 14 15 18 19 NHTVL (Escherichia coli, UniProt P23836) | Sort-seq, refers to: YFP reporter | E. coli | PhoQ-PhoP variant library, together with: 10 µM Mg2+ | baseline: high Mg2+ state, higher = stronger signaling | fold induction | 5.77 |

A few entries again (set 1):
| Strand | fluorescence intensity [a.u.] |
| --- | --- |
| CTAATTGTTACAGCACAAATCACGCGTATTTTCTTCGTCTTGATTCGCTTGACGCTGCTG | 1120 |
| CTAACTCTCACAGCTGATGTGATCCGAAGAAAATTCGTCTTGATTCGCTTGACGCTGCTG | 635 |
| TGTACGAAGCTATATCAGGTGGCTATAGTAGTTAGGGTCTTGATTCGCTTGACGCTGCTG | 737 |
| GAAAATCCAGCCCATCACCCGGATATTCTGGAATAGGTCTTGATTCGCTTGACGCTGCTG | 478 |
